Measurements pooled from the literature.
Each line is one published result; not all experiments were run side by side. Numbers after ± are the reported error.

SMILES | target or system | assay | system | conditions | scale | quantity | value
C=CC(=O)Nc1cccc(Cn2ncc3cnc(Nc4cnn(CCOC)c4)nc32)c1 | human IKK-epsilon | KINOMEscan |  | 100 nM | baseline: control | binding | 50%
CCN(CC)CC(=O)Nc1cccc(-n2cc(-c3ccc4ccc(-c5cn(-c6cccc(NC(=O)CN(CC)CC)c6)nn5)cc4c3)nn2)c1 | RCC4 | PCR angiogenesis array, refers to: TYMP |  | 5 x IC50, 4 h, normoxia | baseline: untreated | fold regulation | -1.11 fold
COC1CN([C@H]2CC[C@H]([C@@]3(C)Oc4c(Cl)cc(C(=O)NCc5c(SC)cc(C)[nH]c5=O)c(C)c4O3)CC2)C1 |  | RNA-seq, refers to: DYNC2H1 | human, whole blood | dose not given, 24 h | baseline: pretreatment baseline | log2 fold change | 1.48
C[n+]1cccc2cc(/C=N/NC(=O)c3cc(C(=O)N/N=C/c4ccc5c(ccc[n+]5C)c4)ncn3)ccc21 | hp2 hairpin duplex DNA | FRET melting |  | 1 µM |  | ΔTm | 1.1 ± 0.7 °C
COc1ccccc1-c1ccncc1C(=O)Nc1nnc(OCc2ccc(Cl)cc2)s1 | PEO1 BRCA2-mutant |  |  | 0.5 µM, with: olaparib 0.5 µM |  | colony survival | 3.23%
Cn1ncc2cc(-c3cncc(Cl)c3N3CCC4(CCNC4=O)CC3)ccc21 | LS174T | gene expression, microarray, refers to: IL17C mRNA |  | concentration not given, 24 h | baseline: untreated cells | log2 fold change | -3.29
C[n+]1ccc(/C=N/NC(=O)c2ccc3ccc(C(=O)N/N=C/c4cc[n+](C)cc4)nc3n2)cc1 | hp2 hairpin duplex DNA | FRET melting |  | 1 µM |  | ΔTm | 0.2 ± 0.5 °C
Cc1ccncc1.[Cl-].[Cl-].[Ru+2].c1cc(-c2ccc3cccnc3n2)nc(-c2ccc3cccnc3n2)c1.c1ccc2cc3nc4c5cccnc5c5ncccc5c4nc3cc2c1 | A-375 | resazurin |  | with: light 523 nm, 20 mW, 100 J/cm2 |  | EC50 | 1100 nM
CC(C)c1ccc(N(C)c2ccc3c(c2)OCC[C@H]3CNc2cnccc2C(=O)O)cc1 | HCC1599 | cell viability, CellTiter-Glo |  | 7 days |  | IC50 | 5.64 nM
CNS(=O)(=O)Nc1nccc(Cc2c(C)c3ccc(Oc4ncccc4F)cc3oc2=O)c1F | SNU-449 | cell viability |  | 7 days |  | IC50 | > 1000 nM
CN1CCCNC(=O)c2cccc(c2)C(=O)NCCCN(C)CCCNc2cccc3c2C(=O)c2cccc(c2C3=O)NCCC1 | SAS | RNA-Seq, refers to: C8orf33 mRNA |  | 1 µM, 6 h | baseline: untreated cells | log2 fold change | -0.596
CC(C)(C)c1cc(-c2ccc3cccnc3n2)nc(-c2ccc3cccnc3n2)c1.COc1ccncc1.[Cl-].[Cl-].[Ru+2].c1ccc2cc3nc4c5cccnc5c5ncccc5c4nc3cc2c1 | A-375 | resazurin |  | with: light 523 nm, 20 mW, 100 J/cm2 |  | EC50 | 1430 nM
Cc1ncsc1-c1ccc(C(C)NC(=O)C2CC(O)CN2C(=O)C(NC(=O)CCCCCCCCCCN2CCCC(Nc3ncc(Cl)c(Nc4ccccc4S(=O)(=O)C(C)C)n3)C2)C(C)(C)C)cc1 (centres unmarked) | 22Rv1 | RNA-seq, refers to: ONECUT2 mRNA |  | concentration not given | baseline: DMSO | log2 fold change | -1.21
CCN(C(=O)c1cc(F)ccc1Oc1nncnc1N1CCC2(C1)CN([C@H](CCCN(C)CCOC)C(C)C)C2)C(C)C | DLD-1 | cell growth or viability |  | 7 days |  | GI50 | > 10 µM

For quick reference, copied from above:
SMILES | target or system | assay | system | conditions | scale | quantity | value
Cn1ncc2cc(-c3cncc(Cl)c3N3CCC4(CCNC4=O)CC3)ccc21 | LS174T | gene expression, microarray, refers to: IL17C mRNA |  | concentration not given, 24 h | baseline: untreated cells | log2 fold change | -3.29
